Literature values that unrelated publications cite.
Each line is one published result; not all experiments were run side by side. Several values in a cell are separate wells, animals, samples, runs or records. ± gives the spread as reported. In brackets after ≈: the same amount, converted by molar mass.

For `CN1C(C(=O)Nc2nccs2)=C(O)c2ccccc2S1(=O)=O`, the Km was 6 µM (bioactivation, substrate; human liver microsomes; Michaelis-Menten phase).
`Nc1ccn([C@@H]2CS[C@H](CO)O2)c(=O)n1` has an aqueous solubility of 84.9 mg/mL (≈ 370 mM) (water; hydrate form).
For `O=c1n(CCCN2CCN(c3cccc(Cl)c3)CC2)nc2ccccn12`, “apparent oral clearance” read 155 ± 23 mL/min (healthy humans; oral, 50 mg (HCl salt), with: placebo).
The elimination half-life of `CCN1CCN(Cc2ccc(Nc3ncc(F)c(-c4cc(F)c5nc(C)n(C(C)C)c5c4)n3)nc2)CC1` is reported as 20 h and 22 h (cancer patients).
`COc1cccc(-c2ccc(NC(=O)C3=C(C(=O)O)CCC3)c(F)c2)c1` has an AUC(0-24 h) of 260 µg·h/mL (human; 70 mg daily, steady state).
Under “beating cessation concentration”, `CNC(=O)c1cc(Oc2ccc(NC(=O)Nc3ccc(Cl)c(C(F)(F)F)c3)c(F)c2)ccn1` is recorded as 11 µM (hiPSC-derived cardiomyocytes; 72 h, tested 0 to 100 µM).
The solubility of `CC[C@H](C)[C@H](NC(=O)[C@H](C)NC(=O)CN)C(=O)N[C@H](C(=O)NCC(=O)N[C@@H](CC(C)C)C(=O)N[C@@H](CCSC)C(=O)N[C@H](C(=O)NCC(=O)NCC(=O)N[C@H](C(=O)N[C@H](C(=O)N[C@H](C(=O)N[C@@H](C)C(=O)O)[C@@H](C)CC)C(C)C)C(C)C)C(C)C)[C@@H](C)CC` is reported as 22 ± 9 µM (≈ 27.9 µg/mL) (filtration; sodium phosphate buffer; pH 7.4).
With `CC[C@H](C)CCCCC(=O)N[C@@H](CCN)C(=O)N[C@H](C(=O)N[C@@H](CCN)C(=O)N[C@H]1CCNC(=O)[C@H]([C@@H](C)O)NC(=O)[C@H](CCN)NC(=O)[C@H](CCN)NC(=O)[C@H](CC(C)C)NC(=O)[C@@H](Cc2ccccc2)NC(=O)[C@H](CCN)NC1=O)[C@@H](C)O` the total clearance was 1.87 L/h (population PK model; patients; intravenous, per 70 kg weight).
`COc1cc(/C=C/C(=O)CC(=O)/C=C/c2ccc(O)c(OC)c2)ccc1O` has a t1/2 alpha of 1.38 ± 0.06 min (healthy mice).
`CC[C@H](C)[C@H](NC(=O)[C@@H](CCCCN)NC(=O)[C@H](CCCCN)NC(=O)[C@H](Cc1ccccc1)NC(=O)[C@H](CC(C)C)NC(=O)[C@H](CCCCN)NC(=O)[C@@H](N)CCCCN)C(=O)N[C@@H](CC(C)C)C(=O)N[C@@H](CCCCN)C(=O)N[C@@H](Cc1ccc(O)cc1)C(=O)N[C@@H](CC(C)C)C(N)=O` gave a hemolysis of 23 ± 2% (horse erythrocytes 5 % v/v; 150 µM).
`C[C@@H]1CCO[C@H]2Cn3cc(C(=O)NCc4ccc(F)cc4F)c(=O)c(O)c3C(=O)N12` gave an AUC(0-t) of 46.1 µg·h/mL (healthy Japanese subjects; 50 mg, single dose, fasted).
With `CN1C(C(=O)Nc2ccccn2)=C(O)c2ccccc2S1(=O)=O` the aqueous solubility was -1.91 log mg/mL (water; hydrate).
The Tmax of `COc1ccnc(C[S+]([O-])c2nc3ccc(OC(F)F)cc3[nH]2)c1OC` (centres unmarked) is reported as 2 h (human, nonobese children; age 12-17 y, historical; median).
For `O=C1c2cccc3c2[C@H](CCC3)CN1[C@@H]1CN2CCC1CC2`, the CL/F was 11.3 L/h (patients, plasma; oral, dose not given, netupitant-palonosetron combination, with: cyclophosphamide 500 to 1000 mg/m^2 IV).
`COc1cccc2c1C(=O)c1c(O)c3c(c(O)c1C2=O)C[C@@](O)(C(C)=O)C[C@@H]3O[C@H]1C[C@H](N)[C@H](O)[C@H](C)O1` has a Cmax of 78000 nM (plasma; concentration not given).
`C#Cc1cccc(Nc2ncnc3cc(OCCOC)c(OCCOC)cc23)c1` — result for “volume of distribution”: 74.6 L/m² (children; 120 mg/m^2/day, mean of two days).
Under “maximum whole-body concentration”, `CN[C@H]1CC[C@@H](c2ccc(Cl)c(Cl)c2)c2ccccc21` is recorded as 17 ng/g (juvenile Chinook salmon, whole body wet weight; concentration not given, field-collected).
Under “log2 fold change”, `CC(C)(C)c1nc(-c2cccc(NS(=O)(=O)c3c(F)cccc3F)c2F)c(-c2ccnc(N)n2)s1` is recorded as 0.71 (hiPSC-derived cardiomyocytes; contractility; concentration not given, 72 h, at effective concentration; baseline: baseline).
The Cmax of `CCN(CC)CC#CCOC(=O)C(O)(c1ccccc1)C1CCCCC1` (centres unmarked) is reported as 170 nM (plasma; concentration not given).
For `CC(C)C[C@H](NC(=O)[C@H](CO)NC(=O)[C@H](CCCNC(=N)N)NC(=O)[C@H](CC(=O)O)NC(=O)[C@H](CCC(=O)O)NC(=O)[C@H](C)NC(=O)[C@@H]1CCCN1C(=O)[C@H](C)NC(=O)[C@H](CCC(=O)O)NC(=O)[C@@H]1CCCN1C(=O)[C@@H]1CCCN1)C(N)=O`, “time to neuronal uptake” read no more than 30 min (immunohistochemistry; Fischer 344 rats, substantia nigra; direct injection).
`O=c1c2nc(Br)n([C@@H]3O[C@@H]4CO[P@@](O)(=S)O[C@H]4[C@H]3O)c2nc2[nH]c(-c3ccccc3)cn12` (single isomer, unassigned) has a log Kw of roughly 3 (methanol/water).
Under “AUC(0-10 h) increase”, `COc1cc(C[C@H]2C(=O)OC[C@@H]2Cc2ccc(OC)c(OC)c2)ccc1O` is recorded as 223% (diabetic rats; oral, dose not given; baseline: normal rats).
`Nc1nc2c(ncn2[C@@H]2O[C@@H]3COP(=O)(O)O[C@H]3[C@H]2O)c(=O)[nH]1` — result for “Km or Ki”: 31 µM (PDE2A; cyclic nucleotide hydrolysis, substrate or inhibitor, isothermal titration calorimetry).
`CC[C@@H]1CN(C(=O)NCC(F)(F)F)C[C@@H]1c1cnc2cnc3[nH]ccc3n12` gave an AUC increase of 32% (population pharmacokinetics; rheumatoid arthritis patients, moderate renal impairment; dose not given; baseline: normal renal function).
`CNC(=O)c1cc(Oc2ccc(NC(=O)Nc3ccc(Cl)c(C(F)(F)F)c3)cc2)ccn1` — result for “patients with thrombocytopenia”: 1% (patients; dose not given, grade 3).
The Cmax of `Cc1ccc(Nc2c(F)cccc2Cl)c(CC(=O)O)c1` is reported as 22500 nM (plasma; concentration not given).
`CC(C)/N=c1\cc2n(-c3ccc(Cl)cc3)c3ccccc3nc-2cc1Nc1ccc(Cl)cc1` gave a fraction unbound of less than 0.01% (THP-1 foamy macrophage matrix; 5 µM, 4 h, 37 °C).
`O=C(NCCN1C(=O)C=CC1=O)c1ccc([18F])cc1` has a tumour uptake of 30.3 ± 5.44 %ID/g (mouse, INS1 tumour, tumour; [Cys40]-exendin-4 conjugate).
For `Cc1ccnc2c1NC(=O)c1cccnc1N2C1CC1`, the oral bioavailability was greater than 90% (human; oral).
For `N#CC[C@H](C1CCCC1)n1cc(-c2ncnc3[nH]ccc23)cn1`, tolerability read “not toxic” (healthy human volunteers; oral, 25 mg twice daily).
`C[C@@H]1CCN(C(=O)CC#N)C[C@@H]1N(C)c1ncnc2[nH]ccc12` has a half-life of roughly 3.2 h (healthy human volunteers; oral, 10 mg).
`CCS(=O)(=O)N1CC(CC#N)(n2cc(-c3ncnc4[nH]ccc34)cn2)C1` — result for “dose elevating aPTT”: no less than 30 mg/kg/day (rats; non-GLP toxicity).
Under “percent injected dose”, `O=C(O)CNC(=O)c1ccccc1[131I]` is recorded as 5.6 ± 1 %ID (normal rat, blood; 10 min, with: co-injected 99mTc-1).
For `CC(C)(C)NC(=O)[C@@H]1C[C@@H]2CCCC[C@@H]2CN1C[C@@H](O)[C@H](Cc1ccccc1)NC(=O)[C@H](CC(N)=O)NC(=O)c1ccc2ccccc2n1`, the CL/F was 989 L/h (human HIV patients; 600 mg three times daily, steady state unboosted).
For `Oc1ccc(/C=C/c2cc(O)cc(O)c2)cc1`, the Cmax was 180 nM (plasma; concentration not given).
The Tmax of `Cc1ccccc1-c1cc(N2CCN(C)CC2)ncc1N(C)C(=O)C(C)(C)c1cc(C(F)(F)F)cc(C(F)(F)F)c1` is reported as 5.98 h (healthy volunteers, plasma; oral, 450 mg, single dose, given alone).
With `O=c1ccc2ccccc2o1` the Cmax was 1250 nM (plasma; concentration not given).
`Nc1nc2c(nc(Sc3ccc(Cl)cc3)n2C2OC3COP(O)(=S)OC3C2O)c(=O)[nH]1` (centres unmarked): “Km or Ki” 2.1 µM (PDE1B; cyclic nucleotide hydrolysis, substrate or inhibitor, isothermal titration calorimetry).
`C=Cc1ccccc1` gave a plasma concentration of no more than 22000 nM (exposed polymer industry workers, plasma; concentration not given).
The terminal half-life of `C#Cc1cccc(Nc2ncnc3cc(OCCOC)c(OCCOC)cc23)c1` is reported as 24.2 h (human; oral, 150 mg once daily, day 28, 24 h).
The QTc change of `COc1c(N2C[C@@H]3CCCN[C@@H]3C2)c(F)cc2c(=O)c(C(=O)O)cn(C3CC3)c12` is reported as 12 ms (human, healthy volunteers; 400 mg single dose, 4 h; baseline: predose baseline).

Some of these lines once more:
With `O=c1ccc2ccccc2o1` the Cmax was 1250 nM (plasma; concentration not given).
The QTc change of `COc1c(N2C[C@@H]3CCCN[C@@H]3C2)c(F)cc2c(=O)c(C(=O)O)cn(C3CC3)c12` is reported as 12 ms (human, healthy volunteers; 400 mg single dose, 4 h; baseline: predose baseline).
Under “beating cessation concentration”, `CNC(=O)c1cc(Oc2ccc(NC(=O)Nc3ccc(Cl)c(C(F)(F)F)c3)c(F)c2)ccn1` is recorded as 11 µM (hiPSC-derived cardiomyocytes; 72 h, tested 0 to 100 µM).
For `CN1C(C(=O)Nc2nccs2)=C(O)c2ccccc2S1(=O)=O`, the Km was 6 µM (bioactivation, substrate; human liver microsomes; Michaelis-Menten phase).
`CCS(=O)(=O)N1CC(CC#N)(n2cc(-c3ncnc4[nH]ccc34)cn2)C1` — result for “dose elevating aPTT”: no less than 30 mg/kg/day (rats; non-GLP toxicity).
